Published values gathered from unrelated publications.
Every numbered part comes from another study and shows a few of its results, in no order. Positions count from the first letter of the parent shown.

Set 1
Target: ABI1, truncated, D143A, DHFR fusion (Arabidopsis thaliana)
Method: DHFR PCA, deep sequencing
Medium: yeast
Notes: methotrexate growth selection, single substitutions
Added: (+)-ABA 0.0091 µM
Relative to: wild-type fitted maximum
Reading: higher = stronger binding
Parent: PYL1, truncated, DHFR fusion (Arabidopsis thaliana); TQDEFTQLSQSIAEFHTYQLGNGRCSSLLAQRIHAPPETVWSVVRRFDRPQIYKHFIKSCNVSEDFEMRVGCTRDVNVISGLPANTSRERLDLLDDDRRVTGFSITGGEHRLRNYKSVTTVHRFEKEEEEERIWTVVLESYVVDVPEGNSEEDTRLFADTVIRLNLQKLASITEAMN; partner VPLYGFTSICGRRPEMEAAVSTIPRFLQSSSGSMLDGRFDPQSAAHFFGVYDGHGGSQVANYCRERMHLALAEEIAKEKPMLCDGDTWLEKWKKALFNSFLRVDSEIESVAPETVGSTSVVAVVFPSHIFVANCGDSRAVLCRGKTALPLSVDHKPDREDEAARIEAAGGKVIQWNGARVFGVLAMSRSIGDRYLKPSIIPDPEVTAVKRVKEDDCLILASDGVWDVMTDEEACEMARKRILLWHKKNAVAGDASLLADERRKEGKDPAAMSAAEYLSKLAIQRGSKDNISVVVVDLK
Under “relative binding score”, `F124T` is recorded as 5.93%.
`D95R` — result for “relative binding score”: -11.3%.
Under “relative binding score”, `A175C` is recorded as 14.4%.
`S150Y`: “relative binding score” -0.774%.
`V136I`: “relative binding score” 12.1%.
Under “relative binding score”, `K116H` is recorded as 7.04%.
`L138F`: “relative binding score” 8.93%.
For `I57L`, “relative binding score” read 0.798%.

Set 2
Target: Prothrombin, mature alpha-thrombin (F2, Homo sapiens, UniProt P00734)
Method: aptamer microarray, sandwich
Form: DNA with 2'F-ANA
Medium: in vitro
Tested at: 200 nM
Notes: whole 15-mer aptamer, many near background
Added: Cy3 exosite-II aptamer, 400 nM
Reading: higher = stronger binding
Oligonucleotide: GGTTGGTGTGGTTGG
`2'F-ANA at 2 3 8 9 14 15`: “mean fluorescence intensity” 430 a.u.
For `2'F-ANA at 3 6 11 12 13`, “mean fluorescence intensity” read 1020 a.u.
`2'F-ANA at 1 2 3 5 6 7 9 11 14`: “mean fluorescence intensity” 45.6 a.u.
`2'F-ANA at 4 5 7 10 11 13 14` — result for “mean fluorescence intensity”: 44 a.u.
`2'F-ANA at 1 3 6 8 9 12 13`: “mean fluorescence intensity” 432 a.u.
Under “mean fluorescence intensity”, `2'F-ANA at 2 3 4 5 6 10 11 13 14` is recorded as 59.7 a.u.
Under “mean fluorescence intensity”, `2'F-ANA at 1 4 8 10 11 12 13` is recorded as 50.9 a.u.
For `2'F-ANA at 1 6 10 11 13 14 15`, “mean fluorescence intensity” read 57.4 a.u.

Set 3
Target: Interferon regulatory factor 3, full length, phosphomimetic (IRF3, Homo sapiens, UniProt Q14653, residues 1-427, S386D/S396D/S398D/S402D/T404D/S405D)
Method: protein-binding microarray
Form: double-stranded DNA, one strand shown
Medium: in vitro
Tested at: 2540 nM top
Notes: 60-bp whole probe
Added: salmon DNA 0.4 mg/ml
Relative to: random background probes
Reading: higher = stronger binding
All sequences stand within: GCCTAGCAC … GTCTTGATTCGCTTGACGCTGCTG
Target sequence (chain): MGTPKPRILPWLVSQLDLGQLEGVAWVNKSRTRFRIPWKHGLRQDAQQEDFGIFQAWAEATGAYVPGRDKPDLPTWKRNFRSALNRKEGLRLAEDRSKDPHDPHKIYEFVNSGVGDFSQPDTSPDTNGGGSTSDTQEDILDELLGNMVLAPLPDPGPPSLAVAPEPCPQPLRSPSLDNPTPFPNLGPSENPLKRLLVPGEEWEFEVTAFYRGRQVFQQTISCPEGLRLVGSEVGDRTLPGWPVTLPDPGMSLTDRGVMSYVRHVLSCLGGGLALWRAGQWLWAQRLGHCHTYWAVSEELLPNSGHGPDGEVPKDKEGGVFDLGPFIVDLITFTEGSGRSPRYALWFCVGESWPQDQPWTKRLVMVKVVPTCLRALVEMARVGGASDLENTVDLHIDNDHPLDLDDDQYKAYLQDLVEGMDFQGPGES
Under “fitted relative affinity”, `GACGGTTTCAACTTTCGGGACGTGCTA` is recorded as 2.48 z-score.
`TCACTGCTACCCTTTGAAACTGTGCTA` — result for “fitted relative affinity”: -0.209 z-score.
`TCAATTTTCTAAATGCCACTGTGCTAG`: “fitted relative affinity” 1.07 z-score.
Under “fitted relative affinity”, `GACGATTTGGGGTATCGAGACGTGCTA` is recorded as 0.0257 z-score.
For `CTAGATCTCAGTCTCGATTAGTGCTAG`, “fitted relative affinity” read 0.679 z-score.
Under “fitted relative affinity”, `GACGGTTTCCCACTGCTGACGTGCTAG` is recorded as 4.93 z-score.
`TCACCACTCATGCCTCTTACTGTGCTA`: “fitted relative affinity” -0.0523 z-score.
`GACGACCTGAGACTGGAGACGTGCTAG` — result for “fitted relative affinity”: -0.593 z-score.

Single results of other studies
`CCCCC(C)(O)C/C=C/[C@H]1[C@H](O)CC(=O)[C@@H]1CCCCCCC(=O)OC` (mixture of isomers) has a viability of 106% (A-375; 100 µM, 36 h).
